{"data": "Measured values gathered from unrelated publications", "GUK1": "GUK1 (Homo sapiens, UniProt Q16774)", "USP49 ZnF-UBD domain": "Ubiquitin carboxyl-terminal hydrolase 49, ZnF-UBD domain (USP49, Homo sapiens, UniProt Q70CQ1)", "note": "Compare with care: the assays were run in different laboratories. “And” joins repeats or separate records; there may be more than shown. Numbers after ± are the reported error.", "sequence of UniProt Q8IWT6 (whole entry, unmodified, looked up)": "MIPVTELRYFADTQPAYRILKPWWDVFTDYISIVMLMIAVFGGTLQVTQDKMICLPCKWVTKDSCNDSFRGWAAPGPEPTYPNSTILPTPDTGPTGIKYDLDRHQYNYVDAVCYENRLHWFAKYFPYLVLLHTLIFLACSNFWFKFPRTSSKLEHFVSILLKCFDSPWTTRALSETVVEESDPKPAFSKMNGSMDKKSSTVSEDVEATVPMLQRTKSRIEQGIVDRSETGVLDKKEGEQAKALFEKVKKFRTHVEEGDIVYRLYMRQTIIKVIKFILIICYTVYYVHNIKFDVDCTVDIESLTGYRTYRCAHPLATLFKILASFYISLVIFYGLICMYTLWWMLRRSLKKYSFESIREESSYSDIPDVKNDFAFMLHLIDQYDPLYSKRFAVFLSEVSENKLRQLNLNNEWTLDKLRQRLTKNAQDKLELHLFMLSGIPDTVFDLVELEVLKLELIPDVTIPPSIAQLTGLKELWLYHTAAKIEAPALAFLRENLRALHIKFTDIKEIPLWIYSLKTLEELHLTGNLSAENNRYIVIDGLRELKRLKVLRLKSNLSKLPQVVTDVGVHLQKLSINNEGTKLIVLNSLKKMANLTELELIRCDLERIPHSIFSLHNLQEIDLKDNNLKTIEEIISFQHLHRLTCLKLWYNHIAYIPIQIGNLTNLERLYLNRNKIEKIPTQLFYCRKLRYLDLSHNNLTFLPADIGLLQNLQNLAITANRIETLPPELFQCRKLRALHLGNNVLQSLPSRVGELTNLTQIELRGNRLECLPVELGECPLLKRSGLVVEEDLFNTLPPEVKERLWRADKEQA", "sequence of UniProt Q16774 (whole entry, looked up)": "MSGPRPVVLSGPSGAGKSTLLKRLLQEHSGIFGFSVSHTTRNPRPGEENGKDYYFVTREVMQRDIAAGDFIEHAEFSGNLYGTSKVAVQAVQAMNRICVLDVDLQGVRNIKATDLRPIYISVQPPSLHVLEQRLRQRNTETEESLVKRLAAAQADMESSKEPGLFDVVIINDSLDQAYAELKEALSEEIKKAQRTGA", "sequence of UniProt P51575 (whole entry, unmodified, looked up)": "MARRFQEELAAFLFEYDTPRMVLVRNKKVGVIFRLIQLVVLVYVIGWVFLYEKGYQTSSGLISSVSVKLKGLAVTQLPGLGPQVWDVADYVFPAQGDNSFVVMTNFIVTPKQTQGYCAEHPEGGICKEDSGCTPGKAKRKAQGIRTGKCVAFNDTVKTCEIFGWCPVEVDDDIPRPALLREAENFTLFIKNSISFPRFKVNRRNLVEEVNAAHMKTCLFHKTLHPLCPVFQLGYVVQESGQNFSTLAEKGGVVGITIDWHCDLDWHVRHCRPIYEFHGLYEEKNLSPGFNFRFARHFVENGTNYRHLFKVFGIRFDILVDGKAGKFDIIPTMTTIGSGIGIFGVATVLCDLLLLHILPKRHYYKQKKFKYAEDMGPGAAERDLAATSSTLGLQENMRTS", "sequence of UniProt Q562R1 (whole entry, looked up)": "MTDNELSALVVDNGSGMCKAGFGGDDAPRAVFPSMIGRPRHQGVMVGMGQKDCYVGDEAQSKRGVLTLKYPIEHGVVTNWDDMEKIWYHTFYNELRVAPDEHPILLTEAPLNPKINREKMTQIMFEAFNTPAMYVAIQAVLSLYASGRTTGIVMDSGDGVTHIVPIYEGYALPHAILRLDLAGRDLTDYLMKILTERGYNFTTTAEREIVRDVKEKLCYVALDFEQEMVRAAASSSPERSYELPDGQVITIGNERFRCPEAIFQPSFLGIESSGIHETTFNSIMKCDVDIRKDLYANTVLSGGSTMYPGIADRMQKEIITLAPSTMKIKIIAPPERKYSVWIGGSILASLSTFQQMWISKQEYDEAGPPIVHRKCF", "sequence of UniProt Q64663 (whole entry, unmodified, looked up)": "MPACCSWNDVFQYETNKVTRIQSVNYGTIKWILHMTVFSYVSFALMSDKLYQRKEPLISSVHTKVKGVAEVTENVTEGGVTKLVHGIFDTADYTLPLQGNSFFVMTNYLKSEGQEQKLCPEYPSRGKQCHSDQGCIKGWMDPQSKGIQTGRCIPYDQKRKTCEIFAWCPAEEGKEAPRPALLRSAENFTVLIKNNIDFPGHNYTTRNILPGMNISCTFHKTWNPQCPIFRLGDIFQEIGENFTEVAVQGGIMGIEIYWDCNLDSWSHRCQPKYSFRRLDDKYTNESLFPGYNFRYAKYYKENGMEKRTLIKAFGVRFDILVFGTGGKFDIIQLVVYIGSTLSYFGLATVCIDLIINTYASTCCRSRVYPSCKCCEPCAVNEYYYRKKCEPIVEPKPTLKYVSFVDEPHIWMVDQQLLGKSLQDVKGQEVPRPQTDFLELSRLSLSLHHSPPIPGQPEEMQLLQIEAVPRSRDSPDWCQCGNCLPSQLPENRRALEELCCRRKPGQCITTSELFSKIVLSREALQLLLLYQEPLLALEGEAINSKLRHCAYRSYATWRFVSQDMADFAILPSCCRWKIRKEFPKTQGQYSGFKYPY", "sequence of UniProt P32239 (whole entry, looked up)": "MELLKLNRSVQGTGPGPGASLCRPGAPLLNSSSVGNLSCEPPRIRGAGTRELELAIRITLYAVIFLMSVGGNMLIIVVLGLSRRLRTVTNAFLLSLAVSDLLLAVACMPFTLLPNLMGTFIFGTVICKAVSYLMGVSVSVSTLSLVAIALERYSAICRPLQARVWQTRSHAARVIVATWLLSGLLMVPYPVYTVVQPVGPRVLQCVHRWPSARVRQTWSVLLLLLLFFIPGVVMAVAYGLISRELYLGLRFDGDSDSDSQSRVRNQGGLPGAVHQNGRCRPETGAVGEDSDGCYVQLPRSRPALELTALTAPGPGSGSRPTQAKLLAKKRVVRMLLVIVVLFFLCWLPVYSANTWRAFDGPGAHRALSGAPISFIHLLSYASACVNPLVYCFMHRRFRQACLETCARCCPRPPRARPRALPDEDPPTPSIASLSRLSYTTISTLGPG", "sequence of UniProt O00482 (whole entry, looked up)": "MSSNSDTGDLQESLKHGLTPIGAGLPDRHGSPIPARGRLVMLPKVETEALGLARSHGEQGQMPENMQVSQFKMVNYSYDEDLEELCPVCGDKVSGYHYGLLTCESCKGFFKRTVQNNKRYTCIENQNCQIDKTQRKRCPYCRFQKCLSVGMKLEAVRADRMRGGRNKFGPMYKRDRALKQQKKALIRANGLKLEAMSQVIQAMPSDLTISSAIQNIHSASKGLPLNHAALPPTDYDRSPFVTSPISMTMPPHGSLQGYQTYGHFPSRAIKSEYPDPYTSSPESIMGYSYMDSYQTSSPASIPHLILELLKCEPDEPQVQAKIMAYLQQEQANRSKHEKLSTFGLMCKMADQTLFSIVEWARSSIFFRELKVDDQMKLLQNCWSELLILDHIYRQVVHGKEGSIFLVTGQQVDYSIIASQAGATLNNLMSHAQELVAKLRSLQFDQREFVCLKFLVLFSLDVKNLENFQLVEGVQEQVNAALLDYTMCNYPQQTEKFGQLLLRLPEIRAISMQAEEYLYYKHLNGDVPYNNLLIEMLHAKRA", "sequence of UniProt Q70CQ1 (whole entry, looked up)": "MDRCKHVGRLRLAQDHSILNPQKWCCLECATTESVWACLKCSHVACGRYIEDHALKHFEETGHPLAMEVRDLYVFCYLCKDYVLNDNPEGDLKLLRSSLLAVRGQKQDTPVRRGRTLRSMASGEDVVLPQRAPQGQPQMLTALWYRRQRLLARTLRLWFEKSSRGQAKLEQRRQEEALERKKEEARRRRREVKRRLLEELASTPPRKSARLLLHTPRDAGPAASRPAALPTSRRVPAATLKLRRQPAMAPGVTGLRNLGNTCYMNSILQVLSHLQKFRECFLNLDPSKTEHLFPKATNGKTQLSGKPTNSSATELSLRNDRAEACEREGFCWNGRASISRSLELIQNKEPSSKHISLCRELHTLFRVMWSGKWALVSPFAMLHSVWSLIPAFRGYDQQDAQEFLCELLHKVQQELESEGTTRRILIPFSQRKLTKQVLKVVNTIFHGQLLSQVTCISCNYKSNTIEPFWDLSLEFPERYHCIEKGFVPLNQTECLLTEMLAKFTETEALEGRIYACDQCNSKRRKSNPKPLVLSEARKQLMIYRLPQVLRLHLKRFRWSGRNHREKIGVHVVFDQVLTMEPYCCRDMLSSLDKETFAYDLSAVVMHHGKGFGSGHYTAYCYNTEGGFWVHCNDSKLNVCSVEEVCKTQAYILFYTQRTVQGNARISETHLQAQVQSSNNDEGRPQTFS", "sequence of UniProt P00441 (whole entry, unmodified, looked up)": "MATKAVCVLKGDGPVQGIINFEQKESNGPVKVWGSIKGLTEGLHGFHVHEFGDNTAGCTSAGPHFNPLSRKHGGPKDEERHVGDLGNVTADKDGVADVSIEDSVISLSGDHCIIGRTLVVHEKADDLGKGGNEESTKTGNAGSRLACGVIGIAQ", "sequence of UniProt Q9NS75 (whole entry, looked up)": "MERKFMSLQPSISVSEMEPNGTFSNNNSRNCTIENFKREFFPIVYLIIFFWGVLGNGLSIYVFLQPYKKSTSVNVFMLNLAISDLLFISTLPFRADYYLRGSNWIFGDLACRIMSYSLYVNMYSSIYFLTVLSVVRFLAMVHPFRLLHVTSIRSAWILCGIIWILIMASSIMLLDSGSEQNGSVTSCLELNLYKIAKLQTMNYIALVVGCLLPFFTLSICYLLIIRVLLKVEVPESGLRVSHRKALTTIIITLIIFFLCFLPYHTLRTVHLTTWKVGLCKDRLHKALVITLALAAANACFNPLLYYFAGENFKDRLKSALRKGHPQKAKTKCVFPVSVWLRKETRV", "sequence of UniProt O43570 (whole entry, looked up)": "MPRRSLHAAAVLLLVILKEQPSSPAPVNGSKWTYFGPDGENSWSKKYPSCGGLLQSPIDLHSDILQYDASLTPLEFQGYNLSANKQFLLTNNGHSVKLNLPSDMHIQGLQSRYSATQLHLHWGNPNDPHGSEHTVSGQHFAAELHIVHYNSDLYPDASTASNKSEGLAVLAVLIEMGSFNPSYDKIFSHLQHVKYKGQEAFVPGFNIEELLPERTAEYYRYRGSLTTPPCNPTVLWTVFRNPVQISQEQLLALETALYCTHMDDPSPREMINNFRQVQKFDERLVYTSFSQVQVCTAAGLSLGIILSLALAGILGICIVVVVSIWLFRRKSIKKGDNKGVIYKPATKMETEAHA"}
{"Compound": "CCN(CC)CCNC(=O)C1CCN(c2ccc3nnc(-c4cccc(C)c4)n3n2)CC1", "target": "CatSper channel complex (Homo sapiens, UniProt Q7RTX7+Q86XQ3+Q8NEC5+Q96P56)", "test": "ion current, whole-cell patch clamp", "system": "human sperm", "conditions": "10 µM, at +80 mV", "measurement": "outward current density", "result": "5.9 ± 1.4 pA/pF"}
{"Compound": "Nc1nc2c(ncn2[C@@H]2O[C@H](COP(=O)(O)O)[C@@H](O)[C@H]2O)c(=O)[nH]1", "target": "GUK1", "test": "enzyme activity, NADH-coupled", "conditions": "250 µM, with: KCl 50 mM", "measurement": "reaction velocity", "result": "0.131 µM/s and 0.123 µM/s and 0.117 µM/s"}
{"Compound": "CSCC[C@H](N)C(=O)Nc1ccc2ccccc2c1", "target": "rat neuron-specific aminopeptidase", "test": "substrate", "conditions": "MW 110 kDa", "measurement": "kcat", "result": "15.4 s⁻¹"}
{"Compound": "O=c1cc(-c2ccc([N+](=O)[O-])cc2)[nH]c2c(-c3ccc(Cl)cc3)c(Cc3ccccc3)nn12", "target": "PRKAR1A (Homo sapiens, UniProt P10644)", "test": "thermal stability, binder, thermal proteome profiling", "system": "RD, cell lysate", "conditions": "50 µM, 0.5% DMSO", "how to read": "reference: DMSO vehicle", "measurement": "melting temperature shift", "result": "4.5 °C"}
{"Compound": "CCC(C)(NCCc1ccc(C)cc1)c1cccc(NC2=CC(=O)N(C3CCC(=O)NC3=O)C2=O)c1 (stereo not drawn)", "target": "ZBTB11/CRBN (Homo sapiens, UniProt O95625+Q96SW2)", "test": "protein degradation, degrader, HiBiT luminescence", "system": "MOLT-4", "measurement": "Dmax", "result": "29%"}
{"Compound": "Cc1c(Cl)c(=O)oc2cc(OCCCCSC#N)ccc12", "target": "CA12 (Homo sapiens, UniProt O43570)", "test": "stopped-flow CO2 hydration", "how to read": "reference: Ki CA II over Ki CA XII", "measurement": "selectivity ratio", "result": "> 1690"}
{"Compound": "O=c1nc(SCc2cc(F)cc(C(F)(F)F)c2)nc(SCc2ccc3sccc3c2)[nH]1", "target": "TOP2A (Homo sapiens, UniProt P11388)", "test": "decatenation", "conditions": "7.8 µM", "measurement": "mean decatenated DNA", "result": "100%"}
{"Compound": "Cc1ncsc1-c1ccc(CNC(=O)[C@@H]2C[C@@H](O)CN2C(=O)[C@@H](NC(=O)CCCCCCCCCCCC(=O)NCCCCC#Cc2cccc(-c3nn(-c4nc(C(=O)O)cs4)c(CC4CC4)c3Cc3ccc(S(N)(=O)=O)cc3)c2)C(C)(C)C)cc1", "target": "LDHA (Homo sapiens, UniProt P00338)", "test": "degrader, western blot", "system": "PANC-1", "conditions": "1 µM", "measurement": "onset time of degradation", "result": "24 h"}
{"Compound": "C=CC(=O)N1CCC(COCC(=O)N2CCN(c3nc(-c4cnc(N)nc4C(F)F)nc(N4CCOC[C@@H]4C)n3)CC2)CC1", "target": "Cyclin-dependent kinase 4, with cyclin D1 (CDK4, Homo sapiens, UniProt P11802)", "test": "KINOMEscan", "conditions": "1 µM", "measurement": "remaining binding", "result": "90%"}
{"Compound": "COc1cc(-c2cncc3c2CN(C)Cc2cc(N4CCNCC4)ccc2-3)cc(OC)c1OC", "target": "Phosphatidylinositol 4,5-bisphosphate 3-kinase catalytic subunit alpha isoform, with p85 alpha (Pik3ca, Mus musculus, UniProt P42337, E542K)", "test": "kinase activity", "conditions": "1 µM, p110a(E542K)/p85a)(m mouse, with: ATP 10 µM", "how to read": "reference: DMSO", "measurement": "remaining activity", "result": "100%"}
{"Compound": "O=C(Nc1cccc2c(=O)cc(-c3nnn[nH]3)oc12)c1ccc(OCCCCc2ccccc2)cc1", "target": "LRRC8A/LRRC8C (Homo sapiens, UniProt Q8IWT6+Q8TDW0, L134K/L136K)", "test": "ion current, whole-cell patch clamp", "system": "HCT LRRC8-/- cells", "conditions": "1 µM, -100 mV, L134K/L136K heteromers", "measurement": "inhibition", "result": "44% and 19% and 43.5% and 41.4% and 12.9% and 38.8%"}
{"Compound": "COc1cc(C(=O)NCC2(N(C)C)CCCC2)cc(OC)c1OCc1ccccc1", "target": "Sodium- and chloride-dependent glycine transporter 2 (Homo sapiens, UniProt Q9Y345)", "test": "isothermal titration calorimetry", "conditions": "500 nM to 50 µM, with: protein 21 µM", "measurement": "binding", "result": "no binding"}
{"Compound": "[O-][S+]1CCCCS1 (stereo not drawn)", "target": "SOD1 (Homo sapiens, UniProt P00441, G94A)", "test": "item: SOD1 dimer", "system": "SOD1 G93A transgenic mice, brain", "conditions": "sc, 30 mg/kg twice daily", "measurement": "target engagement", "result": "84.7%"}
{"Compound": "COc1cc(NC(=O)c2ccccn2)ccc1/N=N/c1ccccc1Cl", "target": "GRM1 (Homo sapiens, UniProt Q13255)", "test": "positive allosteric modulator, IP accumulation", "system": "HEK293", "conditions": "30 µM, in the dark, with: low-dose orthosteric agonist", "measurement": "activation", "result": "4.6%"}
{"Compound": "O=C(O)CCc1nc2ccccc2c2nc(Cc3ccccc3)nn12", "target": "USP49 ZnF-UBD domain", "measurement": "Kd", "result": "> 1000 µM"}
{"Compound": "CC[C@@H]1[C@H](F)C(=O)N[C@@H]1COc1nccc2cc(C(N)=O)c(OC)cc12", "target": "IRAK3 (Homo sapiens, UniProt Q9Y616)", "test": "ATP-site probe binding, ActivX profiling", "system": "THP-1 cell lysate", "conditions": "0.2 mM, Lys1 site", "measurement": "inhibition", "result": "72.5%"}
{"Compound": "Nc1ncnc2c1ncn2[C@@H]1O[C@H](COP(=O)(O)OP(=O)(O)OP(=O)(O)O)[C@@H](O)[C@H]1O", "target": "P2X purinoceptor 7 (P2rx7, Rattus norvegicus, UniProt Q64663, I214G)", "test": "ion current, agonist, two-electrode voltage clamp", "system": "Xenopus laevis oocytes", "conditions": "100 µM", "how to read": "reference: highest concentration response", "measurement": "normalized current", "result": "0.311 and 0.293 and 0.271"}
{"Compound": "C=C1C(=O)O[C@@H]2C[C@@]3(C)CCCC(=C)[C@@H]3C[C@H]12", "target": "NR5A2 (Homo sapiens, UniProt O00482)", "test": "reporter gene, Gal4 hybrid reporter", "conditions": "10 µM", "how to read": "reference: vehicle", "measurement": "activation", "result": "0.7 fold"}
{"Compound": "CCCCC/C=C\\C\\C=C/C=C/C=C/[C@@H](SC[C@H](N)C(=O)NCC(=O)O)[C@@H](O)CCCC(=O)O", "target": "CYSLTR2 (Homo sapiens, UniProt Q9NS75)", "test": "GloSensor", "system": "HEK293T", "conditions": "10 nM, after washout", "measurement": "cAMP increase persistence", "result": "≥ 360 min"}
{"Compound": "Cc1cc(-c2ccnc3[nH]cc(F)c23)cc(F)c1[C@@]1(O)[C@H](C)CN(C2CCS(=O)(=O)CC2)C[C@@H]1C", "target": "STK38 (Homo sapiens, UniProt Q15208)", "test": "ATP probe binding, KiNativ, item: Lys1 site", "system": "HEK293T cell lysate", "conditions": "10 µM", "measurement": "inhibition", "result": "19.8%"}
{"Compound": "Nc1ncnc2c1ncn2[C@@H]1O[C@H](COP(=O)(O)CP(=O)(O)OP(=O)(O)O)[C@@H](O)[C@H]1O", "target": "P2X purinoceptor 1 (P2RX1, Homo sapiens, UniProt P51575, K140A)", "test": "saturation binding", "system": "HEK293", "conditions": "13 nM", "measurement": "specific binding", "result": "3620 CCPM and 1130 CCPM and 1040 CCPM"}
{"Compound": "O=C(O)Cc1nc2ccccc2o1", "target": "USP49 ZnF-UBD domain", "measurement": "Kd", "result": "> 1000 µM"}
{"Compound": "[H]/N=C(/N)NCC(=O)O", "target": "SLC6A6 (Homo sapiens, UniProt P31641, G62A)", "test": "binding, microscale thermophoresis", "conditions": "31.3 µM, room temperature, with: 50 nM labelled protein", "how to read": "higher = more binding", "measurement": "normalised MST signal", "result": 0.0303}
{"Compound": "O=C(COP(=O)(O)O)[C@@H](O)[C@H](O)[C@H](O)COP(=O)(O)O", "target": "Beta-actin-like protein 2 (ACTBL2, Homo sapiens, UniProt Q562R1)", "test": "thermal proteome profiling, item: ACTBL2", "system": "HepG2 cell lysate", "conditions": "concentration not given, 57 over 37 °C", "how to read": "reference: compound over control", "measurement": "thermal stability ratio", "result": "0.588 and 0.583 and 0.923"}
{"Compound": "Nc1ncnc2c1ncn2[C@@H]1O[C@H](COP(=O)(O)OP(=O)(O)O)[C@@H](O)[C@H]1O", "target": "GUK1", "test": "binding, isothermal titration calorimetry", "conditions": "molar ratio 0.6998, fitted curve", "measurement": "ΔH", "result": "-2.02 kcal/mol"}
{"Compound": "CC(C)CCC[C@@H](C)[C@H]1CC[C@H]2[C@@H]3CC=C4C[C@@H](O)CC[C@]4(C)[C@H]3CC[C@]12C", "target": "CYP11A1 (Homo sapiens, UniProt P05108)", "test": "substrate binding saturation", "conditions": "with: adrenodoxin 40-fold excess", "how to read": "reference: without adrenodoxin", "measurement": "ΔAmax increase", "result": "3 fold"}
{"Compound": "CCCC[C@H](NC(=O)[C@H](Cc1c[nH]c2ccccc12)N(C)C(=O)C1(O)C[C@H](O)[C@@H](NC(C)=O)[C@H]([C@H](O)[C@H](O)CO)O1)C(=O)N[C@@H](CC(=O)O)C(=O)N[C@@H](Cc1cccc(Br)c1)C(N)=O (stereo partly drawn)", "target": "CCKBR (Homo sapiens, UniProt P32239)", "test": "β-arrestin2 over calcium, agonist, PRESTO-Tango and calcium", "how to read": "reference: CCK8s balanced agonist, higher = more β-arrestin2 biased", "measurement": "bias factor", "result": "2 and 1.98 and 1.94 and 1.91"}
{"Compound": "O=C(c1cc2c(s1)CCCCC2)N1CCC(n2c(=O)[nH]c3ccccc32)CC1", "target": "TRPC6 (Homo sapiens, UniProt Q9Y210)", "test": "ion current, GCaMP6 calcium imaging", "system": "HEK293 transfected", "conditions": "20 µM, unit not given, with: 50 µM OAG", "how to read": "reference: control", "measurement": "peak Ca2+ influx", "result": "1.74 ± 0.173"}
{"Compound": "CN(C)C(=O)C(CCN1CCC(O)(c2ccc(Cl)cc2)CC1)(c1ccccc1)c1ccccc1", "target": "Calcium-activated potassium channel subunit alpha-1, with LRRC26 γ1 subunit (KCNMA1, Homo sapiens, UniProt Q12791)", "test": "BK current, inhibitor, inside-out patch clamp", "system": "excised membrane patch", "conditions": "30 µM, γ1 subunit coexpressed, with: nominally 0 Ca2+ cytosolic", "how to read": "reference: without loperamide", "measurement": "normalized Gmax", "result": 0.114}
{"Compound": "CC(C)c1cccc2c(-c3ccccc3)cc(-c3ccc(-c4ccc(C(=O)O)cc4)[nH]3)nc12", "target": "RARG (Homo sapiens, UniProt P13631)", "test": "reporter gene, antagonist", "how to read": "reference: IC50 RARα over IC50 RARG", "measurement": "selectivity ratio", "result": "> 100 fold"}
{"Compound": "CC[C@@H](C)[C@@H](NC(=O)[C@@H](Cc1ccc(O)cc1)NC(=O)[C@H]1CCCN1C(=O)[C@@H](CCCNC(=N)N)NC(=O)[C@H](N)Cc1c[nH]cn1)C(=O)N[C@H](C)C(=O)N[C@H](Cc1c[nH]cn1)C(=O)N[C@H](CCCNC(=N)N)C(=O)N[C@@H](C(=O)N[C@H](Cc1ccc(O)cc1)C(=O)N[C@H](CO)C(=O)N[C@H](Cc1ccccc1)C(N)=O)C(C)C", "target": "Transferrin receptor protein 1 (Tfrc, Mus musculus, UniProt Q62351)", "test": "flow cytometry", "system": "B16", "conditions": "24 h, unit not given", "how to read": "reference: 0 h", "measurement": "surface TFRC expression", "result": 0.563}
{"Compound": "O=C(O)c1ccc(Nc2ncc3c(n2)-c2ccc(Cl)cc2C(c2c(F)cccc2F)=NC3)cc1", "target": "ROCK-II(h)", "test": "kinase activity", "conditions": "1 µM", "measurement": "remaining activity", "result": "100%"}
{"Compound": "CC(=O)Nc1ccc(O)cc1", "target": "BRD4 (Homo sapiens, UniProt O60885)", "test": "19F NMR, item: tyrosine 119", "conditions": "746 µM", "how to read": "reference: free protein", "measurement": "chemical shift change", "result": "0.121 ppm"}
